Assay results pooled from the literature.
Every numbered part comes from another study and shows a few of its results, in no order. Several values in a cell are separate wells, animals, samples, runs or records.
UniProt Q13163, sequence (whole entry, looked up): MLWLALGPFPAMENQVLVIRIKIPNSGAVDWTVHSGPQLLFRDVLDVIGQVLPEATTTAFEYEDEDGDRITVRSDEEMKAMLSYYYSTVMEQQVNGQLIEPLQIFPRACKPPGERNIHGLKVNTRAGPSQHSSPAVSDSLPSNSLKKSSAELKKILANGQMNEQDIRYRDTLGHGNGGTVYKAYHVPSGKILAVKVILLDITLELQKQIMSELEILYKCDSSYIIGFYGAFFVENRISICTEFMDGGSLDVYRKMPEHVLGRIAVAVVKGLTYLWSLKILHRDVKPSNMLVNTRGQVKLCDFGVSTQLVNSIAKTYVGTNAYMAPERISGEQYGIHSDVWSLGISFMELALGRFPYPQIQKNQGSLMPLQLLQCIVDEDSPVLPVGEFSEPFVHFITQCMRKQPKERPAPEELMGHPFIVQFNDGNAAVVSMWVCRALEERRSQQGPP
UniProt P49840, sequence (whole entry, looked up): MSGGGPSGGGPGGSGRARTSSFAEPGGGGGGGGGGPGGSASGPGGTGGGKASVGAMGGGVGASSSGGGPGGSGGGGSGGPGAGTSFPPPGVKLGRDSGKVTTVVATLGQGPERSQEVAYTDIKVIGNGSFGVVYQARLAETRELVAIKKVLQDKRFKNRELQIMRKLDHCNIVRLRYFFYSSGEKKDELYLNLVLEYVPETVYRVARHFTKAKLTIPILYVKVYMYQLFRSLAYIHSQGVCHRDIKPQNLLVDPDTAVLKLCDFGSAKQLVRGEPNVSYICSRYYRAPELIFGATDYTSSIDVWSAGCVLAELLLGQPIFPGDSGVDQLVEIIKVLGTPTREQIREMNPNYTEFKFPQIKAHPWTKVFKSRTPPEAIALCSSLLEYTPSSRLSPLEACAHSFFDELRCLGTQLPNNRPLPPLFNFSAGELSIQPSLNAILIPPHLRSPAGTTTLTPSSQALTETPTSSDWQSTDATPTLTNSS
UniProt P23443, sequence (whole entry, looked up): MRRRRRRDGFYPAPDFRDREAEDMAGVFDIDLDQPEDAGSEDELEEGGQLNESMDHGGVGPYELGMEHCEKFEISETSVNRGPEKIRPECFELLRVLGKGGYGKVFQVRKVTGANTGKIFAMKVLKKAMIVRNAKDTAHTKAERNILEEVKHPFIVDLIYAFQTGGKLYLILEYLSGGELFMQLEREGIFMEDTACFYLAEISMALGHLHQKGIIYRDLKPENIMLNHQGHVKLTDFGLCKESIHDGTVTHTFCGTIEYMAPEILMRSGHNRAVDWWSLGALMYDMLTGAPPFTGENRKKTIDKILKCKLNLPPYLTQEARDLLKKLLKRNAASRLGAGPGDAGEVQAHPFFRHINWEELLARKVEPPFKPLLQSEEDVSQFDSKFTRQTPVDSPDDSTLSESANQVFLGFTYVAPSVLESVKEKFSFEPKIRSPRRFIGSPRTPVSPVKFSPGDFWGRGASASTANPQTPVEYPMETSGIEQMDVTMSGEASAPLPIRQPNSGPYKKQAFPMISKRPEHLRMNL
UniProt Q15569, sequence (whole entry, looked up): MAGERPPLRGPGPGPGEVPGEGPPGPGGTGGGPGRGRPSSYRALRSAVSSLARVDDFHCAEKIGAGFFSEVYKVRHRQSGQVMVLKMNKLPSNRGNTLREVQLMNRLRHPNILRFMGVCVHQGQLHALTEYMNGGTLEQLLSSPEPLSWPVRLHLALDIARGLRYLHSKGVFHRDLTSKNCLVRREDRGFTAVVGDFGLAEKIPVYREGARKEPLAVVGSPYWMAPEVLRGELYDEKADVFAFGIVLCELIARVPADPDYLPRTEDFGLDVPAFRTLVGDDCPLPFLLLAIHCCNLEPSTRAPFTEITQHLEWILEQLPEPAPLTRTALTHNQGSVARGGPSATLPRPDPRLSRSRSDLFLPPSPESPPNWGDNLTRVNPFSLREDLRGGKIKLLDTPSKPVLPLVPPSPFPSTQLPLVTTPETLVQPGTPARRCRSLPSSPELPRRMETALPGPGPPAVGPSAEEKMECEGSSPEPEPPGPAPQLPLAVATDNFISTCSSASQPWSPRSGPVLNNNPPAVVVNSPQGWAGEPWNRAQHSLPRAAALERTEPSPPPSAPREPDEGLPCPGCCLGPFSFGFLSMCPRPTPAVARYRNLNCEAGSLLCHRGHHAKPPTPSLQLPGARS
UniProt P37023, sequence (whole entry, looked up): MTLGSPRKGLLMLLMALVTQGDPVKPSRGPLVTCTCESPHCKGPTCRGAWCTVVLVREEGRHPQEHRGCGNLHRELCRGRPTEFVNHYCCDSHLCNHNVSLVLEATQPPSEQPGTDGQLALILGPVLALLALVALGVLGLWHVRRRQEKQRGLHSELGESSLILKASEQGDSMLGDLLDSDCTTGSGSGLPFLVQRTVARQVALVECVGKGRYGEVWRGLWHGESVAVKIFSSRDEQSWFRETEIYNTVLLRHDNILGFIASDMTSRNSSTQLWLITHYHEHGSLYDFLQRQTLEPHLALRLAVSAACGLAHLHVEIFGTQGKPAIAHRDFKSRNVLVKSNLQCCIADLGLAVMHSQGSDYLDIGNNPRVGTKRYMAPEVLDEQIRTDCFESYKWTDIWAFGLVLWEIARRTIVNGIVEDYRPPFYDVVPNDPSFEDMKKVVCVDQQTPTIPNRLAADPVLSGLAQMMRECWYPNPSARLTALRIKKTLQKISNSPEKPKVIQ
UniProt P27361, sequence (whole entry, looked up): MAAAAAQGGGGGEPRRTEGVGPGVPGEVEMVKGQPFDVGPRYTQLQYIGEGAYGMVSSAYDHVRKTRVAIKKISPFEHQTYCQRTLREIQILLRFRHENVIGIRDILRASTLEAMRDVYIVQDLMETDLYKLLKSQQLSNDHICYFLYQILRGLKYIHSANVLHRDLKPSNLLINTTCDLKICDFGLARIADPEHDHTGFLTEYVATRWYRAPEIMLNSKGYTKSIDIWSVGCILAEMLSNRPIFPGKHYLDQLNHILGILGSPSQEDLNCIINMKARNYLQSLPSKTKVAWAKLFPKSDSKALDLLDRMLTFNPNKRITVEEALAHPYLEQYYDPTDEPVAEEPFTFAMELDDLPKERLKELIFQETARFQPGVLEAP
UniProt O75914, sequence (whole entry, looked up): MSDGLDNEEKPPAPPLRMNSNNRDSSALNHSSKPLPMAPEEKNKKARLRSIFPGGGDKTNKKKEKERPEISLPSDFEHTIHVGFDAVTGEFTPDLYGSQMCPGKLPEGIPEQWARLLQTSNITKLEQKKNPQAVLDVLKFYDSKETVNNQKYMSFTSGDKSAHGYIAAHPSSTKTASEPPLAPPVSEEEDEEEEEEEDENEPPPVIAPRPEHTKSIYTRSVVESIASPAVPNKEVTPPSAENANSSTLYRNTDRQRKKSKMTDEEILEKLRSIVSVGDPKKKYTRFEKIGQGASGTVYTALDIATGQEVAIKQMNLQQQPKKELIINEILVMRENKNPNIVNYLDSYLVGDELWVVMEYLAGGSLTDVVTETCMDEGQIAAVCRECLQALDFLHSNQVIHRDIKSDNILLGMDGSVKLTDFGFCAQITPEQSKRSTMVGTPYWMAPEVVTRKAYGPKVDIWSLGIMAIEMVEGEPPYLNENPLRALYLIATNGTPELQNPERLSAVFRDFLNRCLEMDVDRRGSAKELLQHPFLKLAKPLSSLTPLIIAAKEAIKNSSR
UniProt Q9UIK4, sequence (whole entry, looked up): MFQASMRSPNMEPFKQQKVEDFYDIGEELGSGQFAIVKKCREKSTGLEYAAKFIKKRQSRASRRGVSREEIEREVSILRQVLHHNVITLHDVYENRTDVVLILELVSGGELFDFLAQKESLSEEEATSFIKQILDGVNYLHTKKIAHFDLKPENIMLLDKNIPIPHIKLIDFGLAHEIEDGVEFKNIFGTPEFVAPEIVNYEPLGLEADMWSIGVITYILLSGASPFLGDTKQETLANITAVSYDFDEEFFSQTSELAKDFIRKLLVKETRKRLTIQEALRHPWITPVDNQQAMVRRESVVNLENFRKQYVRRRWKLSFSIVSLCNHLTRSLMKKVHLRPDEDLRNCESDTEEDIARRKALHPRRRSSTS

Sample 1
Target: Activated CDC42 kinase 1 (TNK2, Homo sapiens, UniProt Q07912)
UniProt Q07912, sequence (whole entry, looked up): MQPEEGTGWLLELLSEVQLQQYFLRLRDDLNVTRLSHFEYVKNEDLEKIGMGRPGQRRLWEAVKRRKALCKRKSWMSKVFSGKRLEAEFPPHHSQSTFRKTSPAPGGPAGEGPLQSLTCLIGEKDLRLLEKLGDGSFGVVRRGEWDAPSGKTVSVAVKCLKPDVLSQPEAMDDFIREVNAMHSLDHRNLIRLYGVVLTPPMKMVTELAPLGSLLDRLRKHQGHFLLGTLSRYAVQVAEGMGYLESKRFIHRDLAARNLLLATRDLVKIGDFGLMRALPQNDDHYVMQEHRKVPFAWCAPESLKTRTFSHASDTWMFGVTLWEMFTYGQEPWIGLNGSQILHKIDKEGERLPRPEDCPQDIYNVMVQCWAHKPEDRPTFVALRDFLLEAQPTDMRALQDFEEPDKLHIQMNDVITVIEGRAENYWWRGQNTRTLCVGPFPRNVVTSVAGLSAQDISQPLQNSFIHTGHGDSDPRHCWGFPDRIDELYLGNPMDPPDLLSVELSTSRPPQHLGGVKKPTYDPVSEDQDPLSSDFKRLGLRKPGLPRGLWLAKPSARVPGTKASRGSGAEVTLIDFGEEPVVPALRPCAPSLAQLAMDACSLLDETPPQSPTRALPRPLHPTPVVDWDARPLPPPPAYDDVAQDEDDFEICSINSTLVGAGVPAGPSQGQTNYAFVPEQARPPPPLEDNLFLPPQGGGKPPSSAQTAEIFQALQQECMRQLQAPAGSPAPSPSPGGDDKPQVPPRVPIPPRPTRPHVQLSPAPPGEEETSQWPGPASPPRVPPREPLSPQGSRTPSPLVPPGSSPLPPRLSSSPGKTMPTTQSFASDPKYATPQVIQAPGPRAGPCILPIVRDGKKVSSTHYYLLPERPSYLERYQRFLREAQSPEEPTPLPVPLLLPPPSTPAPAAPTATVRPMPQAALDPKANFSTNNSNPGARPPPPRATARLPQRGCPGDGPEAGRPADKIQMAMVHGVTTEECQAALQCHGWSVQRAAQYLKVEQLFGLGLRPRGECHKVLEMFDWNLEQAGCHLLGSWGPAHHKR
Observed: enzyme activity
Mode: inhibitor
Tested at: 0.5 µM
Reference: control
With `c1ccc2c(-c3ccncc3)c[nH]c2c1` the remaining activity was 96.1%.
The remaining activity of `CCCCc1c(-c2ccc(OC)cc2)[nH]c2nccnc12` is reported as 51.2%.
With `CCCNC(=O)Nc1ccc(Oc2ncnc3cc(OC)c(OC)cc23)cc1Cl` the remaining activity was 96.5%.
`O=C1NC(=O)c2c1c1c3ccccc3[nH]c1n1cncc21` has a remaining activity of 41.3%.
The remaining activity of `Cc1cc(Nc2cc(N3CCN(C)CC3)nc(Sc3ccc(NC(=O)C4CC4)cc3)n2)[nH]n1` is reported as 66.4%.
`CN(C)S(=O)(=O)c1ccc2c(c1)/C(=C/c1cc3c([nH]1)CCCC3)C(=O)N2` gave a remaining activity of 12.6%.
For `COc1ccc2c(c1)c(C1=C(c3c[nH]c4ccccc34)C(=O)NC1=O)cn2CCCN(C)C`, the remaining activity was 77.9%.
For `O=c1cc(N2CCOCC2)oc2c(-c3ccccc3)cccc12`, the remaining activity was 88.7%.
With `O=C1Cc2c([nH]c3ccc(Br)cc23)-c2ccccc2N1` the remaining activity was 38.8%.
The remaining activity of `O=C1Nc2ccc(Br)cc2/C1=C/c1cc2c([nH]1)CCCC2` is reported as 92.8%.
`O=C(c1cc2cc(O)ccc2[nH]1)c1cc2cc(O)ccc2[nH]1` has a remaining activity of 90.6%.
The remaining activity of `COc1cccc(-c2cc(=O)c3ccccc3o2)c1N` is reported as 79.9%.
For `Oc1cccc(-c2nc(N3CCOCC3)c3oc4ncccc4c3n2)c1`, the remaining activity was 89.6%.

Sample 2
SMILES: C[C@H](c1ccnc(Nc2nc3ccc(-c4cc(N(C)C)ncn4)cc3[nH]2)c1)N1CCN(C(=O)CC(F)(F)F)CC1
Technique: competition with immobilised ligand
Tested at: 0.1 µM
For DAPK2 (Homo sapiens, UniProt Q9UIK4); cell-free assay: remaining binding read 74%.
Ribosomal protein S6 kinase alpha-1, C-terminal kinase domain (RPS6KA1, Homo sapiens, UniProt Q15418); cell-free assay — remaining binding: 82%.
PDPK1 (Homo sapiens, UniProt O15530); cell-free assay — remaining binding: 76%.
The remaining binding was 100% (ABL2 (Homo sapiens, UniProt P42684); cell-free assay).
MET (Homo sapiens, UniProt P08581, M1250T); cell-free assay — remaining binding: 93%.
MAPK4 (Homo sapiens, UniProt P31152); cell-free assay — remaining binding: 100%.
The remaining binding was 100% (GSK3A (Homo sapiens, UniProt P49840); cell-free assay).
For TESK1 (Homo sapiens, UniProt Q15569); cell-free assay: remaining binding read 98%.
It gave 89% for remaining binding (MAPK3 (Homo sapiens, UniProt P27361); cell-free assay).
It gave 100% for remaining binding (ACVRL1 (Homo sapiens, UniProt P37023); binding).
It gave 100% for remaining binding (PAK3 (Homo sapiens, UniProt O75914); cell-free assay).
MAP2K5 (Homo sapiens, UniProt Q13163); binding — remaining binding: 8.5%.
For RPS6KB1 (Homo sapiens, UniProt P23443); cell-free assay: remaining binding read 100%.
For CDK16 (Homo sapiens, UniProt Q00536); cell-free assay: remaining binding read 100%.
For PIK3CA (Homo sapiens, UniProt P42336, C420R); cell-free assay: remaining binding read 100%.

Sample 3
Target: Bromodomain-containing protein 4, BD1 (BRD4, Homo sapiens, UniProt O60885)
Observed: acetyl-histone H4 peptide binding
Technique: AlphaScreen displacement
Tested at: 50 µM
With `CCc1cc(Nc2nccc(-c3c(-c4ccc(OC)c(C(=O)Nc5c(F)cccc5F)c4)nc4ccccn34)n2)c(OC)cc1N1CCC(N2CCN(S(C)(=O)=O)CC2)CC1` the inhibition was 33.2%.
`O=C(Nc1ccc2[nH]ncc2c1)c1ccc(Cl)cc1Cl` gave an inhibition of -1.1%.
With `Cc1ccc(Nc2ncc(-c3ccncc3)n3ccnc23)cc1` the inhibition was 5.35%.
For `Fc1ccc(Nc2ncc3c(n2)CCNC3)cc1`, the inhibition was 13.8%.
The inhibition of `O=C1Nc2ccc(Br)cc2C1=CC(=O)c1ccc(F)cc1` is reported as 69.7%.
`O=C1NC(=O)C(c2c[nH]c3ccccc23)=C1c1c[nH]c2ccccc12` has an inhibition of 81%.
For `O=C(Nc1cc(C(F)(F)F)ccc1N1CCCCC1)c1ccncc1`, the inhibition was 8.45%.
With `N#CC(=C(N)Sc1ccccc1N)C(C#N)=C(N)Sc1ccccc1N` the inhibition was 14.6%.
For `CN(C)c1cccc(-c2nc(-c3ccncc3)cnc2N)c1`, the inhibition was 38.4%.
With `O=C1Nc2ccc(Br)cc2/C1=C/c1cc2c([nH]1)CCCC2` the inhibition was 49.4%.
The inhibition of `Cc1[nH]c(/C=C2\C(=O)Nc3ccc(S(=O)(=O)Cc4c(Cl)cccc4Cl)cc32)c(C)c1C(=O)N1CCC[C@@H]1CN1CCCC1` is reported as 67.7%.

Sample 4
Cell line: mouse MPNST tumor cells
Technique: high-content immunofluorescence imaging
Measured: nuclear SOX9
Tested at: 10 µM
Time: 12 h
Notes: mean of 2 replicates
Reference: DMSO control
Direction: higher = more nuclear SOX9
Under “nuclear SOX9 intensity”, `CNC(=O)c1cc2c(cn1)[nH]c1ccccc12` is recorded as 103 % of DMSO.
For `C[C@@](Cc1ccc(O)c(O)c1)(NN)C(=O)O`, “nuclear SOX9 intensity” read 114 % of DMSO.
`N=C(N)NCC1COC2(CCCCC2)O1` (centres unmarked) — result for “nuclear SOX9 intensity”: 101 % of DMSO.
`CCCN1CCC=C(c2cc(-c3ccc(C)cc3)no2)C1`: “nuclear SOX9 intensity” 99.7 % of DMSO.
Under “nuclear SOX9 intensity”, `CC#C[C@]1(O)CC[C@H]2[C@@H]3CCC4=CC(=O)CCC4=C3[C@@H](c3ccc(N(C)C)cc3)C[C@@]21C` is recorded as 140 % of DMSO and 106 % of DMSO and 125 % of DMSO.
For `Cc1cccc(-c2[nH]c(C34CCC(C(N)=O)(CC3)CC4)nc2-c2ccc3c(c2)OCO3)n1`, “nuclear SOX9 intensity” read 107 % of DMSO.
For `NC(=O)c1ncn([C@@H]2O[C@H](CO)[C@@H](O)[C@H]2O)n1`, “nuclear SOX9 intensity” read 103 % of DMSO and 84.7 % of DMSO and 95.1 % of DMSO.
`CCOc1cc(N2CCC(O)CC2)ccc1Nc1ncc2c(n1)N(C)c1ccccc1C(=O)N2C`: “nuclear SOX9 intensity” 134 % of DMSO.
Under “nuclear SOX9 intensity”, `CCN(CC)CCOC(=O)C1(c2ccc([N+](=O)[O-])cc2)CCCC1` is recorded as 117 % of DMSO.
`CCCN(CC1CC1)c1nc(C)nc(Nc2c(Cl)cc(Cl)cc2Cl)c1Cl` — result for “nuclear SOX9 intensity”: 119 % of DMSO.
For `CC(C)(CN)c1nc(-c2ccc(Cl)c(O)c2)c(-c2ccncc2)[nH]1`, “nuclear SOX9 intensity” read 105 % of DMSO.
Under “nuclear SOX9 intensity”, `CC(NC(=O)C(OC(=O)C(C)NC(=O)OC(C)(C)C)C(C)C)C(=O)OC(C(=O)O)C(C)C` (centres unmarked) is recorded as 100 % of DMSO.
Under “nuclear SOX9 intensity”, `COc1cc(C#N)ccc1S(=O)(=O)Nc1ccc2c(c1)cc(C)c(=O)n2C` is recorded as 107 % of DMSO and 102 % of DMSO.
Under “nuclear SOX9 intensity”, `CCCCOc1ccc(CC(=O)NO)cc1` is recorded as 106 % of DMSO.
For `O=C(NCc1ccc2c(c1)OCO2)c1c(Cl)cccc1Cl`, “nuclear SOX9 intensity” read 111 % of DMSO.
For `Fc1ccc(-c2c3cccc(C(F)(F)F)c3nn2Cc2ccc(F)cc2Cl)cc1`, “nuclear SOX9 intensity” read 100 % of DMSO.
Under “nuclear SOX9 intensity”, `CC(C)c1ccc(NC(=O)Cn2cnc3c2c(=O)n(C)c(=O)n3C)cc1` is recorded as 102 % of DMSO.
`CCN1CCC[C@H]1CNC(=O)c1c(OC)ccc(Br)c1OC`: “nuclear SOX9 intensity” 95.8 % of DMSO.
Under “nuclear SOX9 intensity”, `OC(CNCC(O)C1CCc2cc(F)ccc2O1)C1CCc2cc(F)ccc2O1` (centres unmarked) is recorded as 275 % of DMSO.
For `COc1ccc(Cl)c(Nc2ncnc3cc(OCC4CCN(C)CC4)c(OC)cc23)c1`, “nuclear SOX9 intensity” read 218 % of DMSO.

A few entries again (sample 4):
`N=C(N)NCC1COC2(CCCCC2)O1` (centres unmarked) — result for “nuclear SOX9 intensity”: 101 % of DMSO.
`CCCN1CCC=C(c2cc(-c3ccc(C)cc3)no2)C1`: “nuclear SOX9 intensity” 99.7 % of DMSO.
Under “nuclear SOX9 intensity”, `CC#C[C@]1(O)CC[C@H]2[C@@H]3CCC4=CC(=O)CCC4=C3[C@@H](c3ccc(N(C)C)cc3)C[C@@]21C` is recorded as 140 % of DMSO and 106 % of DMSO and 125 % of DMSO.
For `Cc1cccc(-c2[nH]c(C34CCC(C(N)=O)(CC3)CC4)nc2-c2ccc3c(c2)OCO3)n1`, “nuclear SOX9 intensity” read 107 % of DMSO.
For `NC(=O)c1ncn([C@@H]2O[C@H](CO)[C@@H](O)[C@H]2O)n1`, “nuclear SOX9 intensity” read 103 % of DMSO and 84.7 % of DMSO and 95.1 % of DMSO.
`CCOc1cc(N2CCC(O)CC2)ccc1Nc1ncc2c(n1)N(C)c1ccccc1C(=O)N2C`: “nuclear SOX9 intensity” 134 % of DMSO.
Under “nuclear SOX9 intensity”, `CCN(CC)CCOC(=O)C1(c2ccc([N+](=O)[O-])cc2)CCCC1` is recorded as 117 % of DMSO.
`CCCN(CC1CC1)c1nc(C)nc(Nc2c(Cl)cc(Cl)cc2Cl)c1Cl` — result for “nuclear SOX9 intensity”: 119 % of DMSO.
